Earlier results, collected from citations in different studies.
“And” joins repeats or separate records; there may be more than shown. ± gives the spread as reported. Values after ≈ are worked out from the molar mass of the structure shown.

O=C(O)c1cc(-c2ccc(C3CCNCC3)cc2)c2ccc(-c3ccc(C(F)(F)F)cc3)cc2c1  solubility (pH 4): 1.1 ± 0.07 µg/mL (≈ 2.31 µM)
COc1ccc2c(c1OC)CN1CCc3cc4c(cc3C1=C2)OCO4  LD50 (rat; oral): > 2000 mg/kg
COC(=O)C(N)Cc1ccc(OP2(=O)COC(Cn3ccc(N)nc3=O)CO2)cc1 (centres unmarked)  half-life (PBS; pH 6.5, Sp isomer): 1.52 h
Cc1cccc2c1ccc1cc(C(C)C)ccc12  amount in tissue (zebrafish embryos, whole embryo; 126.3 ng/well, 48 hpf, single exposure): 1.65 ng/well and 1.54 ng/well and 1.64 ng/well
CN[C@H](CC(C)C)C(=O)N[C@H]1C(=O)N[C@@H](CC(N)=O)C(=O)N[C@H]2C(=O)NC3C(=O)N[C@H](C(=O)N[C@H](C(=O)NCCC[N+](C)(C)C)c4cc(O)cc(O)c4-c4cc3ccc4O)[C@H](O)c3ccc(c(Cl)c3)Oc3cc2cc(c3OC2OC(CO)C(O)[C@H](O)[C@@H]2O[C@H]2CC(C)(NCc3ccc(-c4ccc(Cl)cc4)cc3)[C@H](O)[C@H](C)O2)Oc2ccc(cc2Cl)[C@H]1O (some centres unmarked)  MTD (mouse): ≥ 50 mg/kg
CC(C)c1ccc(NC(=O)N(C)C)cc1  log Kow: 2.87
CC(C)C[C@H](NC(=O)CNC(=O)[C@H](C)NC(=O)[C@H](CC(=O)O)NC(=O)[C@H](CC(=O)O)NC(=O)[C@H](C)NC(=O)[C@@H]1CCCN1C(=O)[C@H](CCCCN)NC(=O)CNC(=O)[C@@H]1CCCN1C(=O)[C@@H]1CCCN1C(=O)[C@@H]1CCCN1C(=O)[C@H](CCC(=O)O)NC(=O)CN)C(=O)N[C@H](C(=O)O)C(C)C  acute toxicity (Sprague-Dawley rat; intravenous or intramuscular, dose not given): not toxic
CCCCCOc1ccc(-c2cc(-c3ccc(C(=O)N[C@H]4C[C@@H](O)[C@@H](O)NC(=O)[C@@H]5[C@@H](O)[C@@H](C)CN5C(=O)[C@H]([C@H](O)CC(N)=O)NC(=O)[C@H]([C@H](O)[C@@H](O)c5ccc(O)c(OS(=O)(=O)O)c5)NC(=O)[C@@H]5C[C@@H](O)CN5C(=O)[C@H]([C@@H](C)O)NC4=O)cc3)no2)cc1  fraction excreted in faeces (human; with: radiolabelled compound): 71%
CC(C)OC(=O)[C@@H](N)Cc1ccc(OP2(=O)CO[C@@H](Cn3ccc(N)nc3=O)CO2)cc1 (some centres unmarked)  half-life (PBS; pH 6.5, Sp isomer): 2.02 h
CC(=O)CC(c1ccccc1)c1c(O)c2ccccc2oc1=O (centres unmarked)  fraction unbound (dog): 0.384
Cc1ccc2cc(C)ccc2c1  amount in tissue (zebrafish embryos, whole embryo; 390.55 ng/well, 48 hpf, single exposure): 2.26 ng/well and 2.21 ng/well and 2.25 ng/well
O=C(O)C(F)(F)C(F)(F)C(F)(F)C(F)(F)C(F)(F)C(F)(F)C(F)(F)C(F)(F)C(F)(F)F  plasma fraction unbound (plasma): 0.0027
NC1CCN(c2c(F)cc3c(=O)c(C(=O)O)cn(C4CC4)c3c2Cl)C1 (centres unmarked)  fraction unbound (dog): 0.398
N#CCNC(=O)c1ccc(-c2ccnc(Nc3ccc(N4CCOCC4=O)cc3)n2)cc1  AUC(0-inf) decrease (severe hepatic impairment; dose not given; reference: matched healthy participants): 48%
Cc1nc2n(c(=O)c1CCN1CCC(c3noc4cc(F)ccc34)CC1)CCCC2  fraction unbound (mouse): 0.039
O=S(=O)(O)C(F)(F)C(F)(F)C(F)(F)C(F)(F)C(F)(F)C(F)(F)F  plasma fraction unbound (plasma): 0.0009
Brc1ccc(Oc2c(Br)cc(Br)cc2Br)c(Br)c1  log Kow: 7.24
COc1ccc(C(=O)Nc2ccccc2CCC2CCCCN2C)cc1 (centres unmarked)  Cmax (human, plasma; concentration not given, range of reported values): 684 to 2830 nM
CCCCCOc1ccc(-c2ccc(-c3ccc(C(=O)N[C@H]4C[C@@H](O)[C@@H](O)NC(=O)[C@@H]5[C@@H](O)[C@@H](C)CN5C(=O)[C@H]([C@@H](C)O)NC(=O)[C@H]([C@H](O)[C@@H](O)c5ccc(O)cc5)NC(=O)[C@@H]5C[C@@H](O)CN5C(=O)[C@H]([C@@H](C)O)NC4=O)cc3)cc2)cc1  AUC(0-inf) (end-stage renal disease; 50 mg single dose, predialysis dosing): 48100 ± 5000 ng·h/mL
Nc1ccncc1  Cmax (plasma; concentration not given, total, literature data): 198 nM
Cc1ccc2ccccc2c1  amount in tissue (zebrafish embryos, whole embryo; 165 ng/well, 48 hpf, single exposure): 0.369 ng/well and 0.37 ng/well and 0.407 ng/well
O=C1CCc2ccc(OCCCCN3CCN(c4cccc(Cl)c4Cl)CC3)cc2N1  fraction unbound (dog): 0.001
CC(C)(c1ccc(O)cc1)c1ccc(O)cc1  dose-normalized Cmax (CD-1 mouse, female; 100 mg/kg): 9.47 (nmol/mL)/(mmol/kg)
NC(=O)c1nc(F)c[nH]c1=O  lung concentration (hamster; intraperitoneal, 6.25 mg): 50.2 µg/g
Fc1ccc([C@@H]2CCNC[C@H]2COc2ccc3c(c2)OCO3)cc1  fraction unbound (dog): 0.004
CC(C)c1nc(CN(C)C(=O)N[C@H](C(=O)N[C@@H](Cc2ccccc2)C[C@H](O)[C@H](Cc2ccccc2)NC(=O)OCc2cncs2)C(C)C)cs1  blood-to-plasma ratio (human): 0.14
COc1ccc2c(c1)NC(=O)CN2c1nc(Cl)nc2cccnc12  maximum tolerated dose (body weight loss and death; mouse): > 1 mg/kg
c1cc2ccc3cccc4ccc(c1)c2c34  amount in tissue (zebrafish embryos, whole embryo; 234.61 ng/well, 48 hpf, single exposure): 37.5 ng/well and 40.4 ng/well and 50.6 ng/well
OCCOCCN1CCN(C(c2ccccc2)c2ccc(Cl)cc2)CC1 (centres unmarked)  fraction unbound (mouse): 0.0081
NC1CCCCC1N.O=C([O-])C(=O)[O-].[Pt+2] (centres unmarked)  Cmax (measured: free platinum; mice, plasma ultrafiltrate; intravenous, 8.34 mg Pt/kg): 20 µg Pt/mL
c1ccc2c(c1)ccc1c3ccccc3ccc21  Km (substrate; human liver microsomes): 0.05 µM
O=S(=O)(O)C(F)(F)C(F)(F)C(F)(F)C(F)(F)C(F)(F)C(F)(F)C(F)(F)C(F)(F)F  pKa (literature value; vapour phase): < 0.3
CC(=O)C[C@@H](c1ccccc1)c1c(O)c2ccccc2oc1=O  Cmax, mean (human, fasted; oral, 5 mg, single dose, with: racemic warfarin 10 mg): 550 ng/mL
Cc1sc2c(c1C)C(c1ccc(Cl)cc1)=N[C@@H](CC(=O)OC(C)(C)C)c1nnc(C)n1-2  AUC(0-inf) (mouse; intravenous, 5 mg/kg): 2130 ng·h/mL
CC(CC(c1ccccc1)c1ccccc1)NC(C)(C)C (centres unmarked)  fraction unbound (dog): 0.148
O=S(=O)(O)C(F)(F)C(F)(F)C(F)(F)C(F)(F)C(F)(F)C(F)(F)F  half-life (mouse, male): 672 h
NS(=O)(=O)Cc1noc2ccccc12  fraction unbound (mouse): 0.299
Cc1cccc2c1ccc1cc(C(C)C)ccc12  Km (metabolism, substrate; human liver microsomes): 0.002 µM

Repeated from above:
COc1ccc(C(=O)Nc2ccccc2CCC2CCCCN2C)cc1 (centres unmarked)  Cmax (human, plasma; concentration not given, range of reported values): 684 to 2830 nM
CCCCCOc1ccc(-c2ccc(-c3ccc(C(=O)N[C@H]4C[C@@H](O)[C@@H](O)NC(=O)[C@@H]5[C@@H](O)[C@@H](C)CN5C(=O)[C@H]([C@@H](C)O)NC(=O)[C@H]([C@H](O)[C@@H](O)c5ccc(O)cc5)NC(=O)[C@@H]5C[C@@H](O)CN5C(=O)[C@H]([C@@H](C)O)NC4=O)cc3)cc2)cc1  AUC(0-inf) (end-stage renal disease; 50 mg single dose, predialysis dosing): 48100 ± 5000 ng·h/mL
Nc1ccncc1  Cmax (plasma; concentration not given, total, literature data): 198 nM
Cc1ccc2ccccc2c1  amount in tissue (zebrafish embryos, whole embryo; 165 ng/well, 48 hpf, single exposure): 0.369 ng/well and 0.37 ng/well and 0.407 ng/well
O=C1CCc2ccc(OCCCCN3CCN(c4cccc(Cl)c4Cl)CC3)cc2N1  fraction unbound (dog): 0.001
